Results collected from several papers.
Each numbered part is a random draw from the data of one study; scales do not carry over between parts.

Study 1 — method: RNA Bind-n-Seq; molecule type: RNA; sample: in vitro; tested at: 365 nM; relative to: no-protein control; reading: higher = stronger binding
Target: RNA binding protein fox-1 homolog 2, RRM domain, GST-SBP tag (RBFOX2, Homo sapiens, UniProt O43251-10, residues 100-194)
Setting: natural RNA segment, single round, ends assumed
All sequences stand within: GGGAGUUCUACAGUCCGACGAUC … UGGAAUUCUCGGGUGCCAA
Residues (chain): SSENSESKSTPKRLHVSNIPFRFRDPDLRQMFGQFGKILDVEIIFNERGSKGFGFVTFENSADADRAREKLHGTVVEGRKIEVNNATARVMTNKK
`AUACAUUUAAAAAAAUACUACUUUUUAAAUGGUAGUUUUAAAAUAACAGUAUCUUACUUGUUGCCAUUGAAAAAAGAAUCCAACUUUUCACUUUCAAAAAUGGCUAUAUA` — result for “RBNS enrichment (R)”: 0.516.
`CCUCCUUUUAUUCCUGUUUCCCGAAAUAAGGUAUUUGUAGAGUUAAGGACCUACUGCAUGCCUGUCCCCAGGGCCCCGGUGGAAGGAAGGCAGCGCCUGCUCUUCCUUAA` — result for “RBNS enrichment (R)”: 3.29.
`GGACAGAAUCCCCGACUGCACUAUUGAGGGAGUUUCAGAAGAGAAGGAAGAGGUGCUGGAAGGAUGCUUUUGCAGUCAUGCAGCAAGGAAACGACCAGGGCUGUGAAGAU` — result for “RBNS enrichment (R)”: 0.712.
Under “RBNS enrichment (R)”, `AGCAUUUAAUGGGAUUAGCUGUAGUCACUGCUUAUGGGAAGAACCUCAGAUCAGCCCCUUAAAAUGAGUUCUAGAGCAGGUCUUCUGUUCCAGAAGGGGAGAAGCAUAGA` is recorded as 0.762.
`GGAAGCUUGUCUGCCCCUCACCAGAGGUGGCCUCUGCACAUGGCACACCAGCCGGGGCUGUACCGCACUCGUGGUGGCUUGUUGUCCUCUCGACUCCUGUGGCAUGGUGC` — result for “RBNS enrichment (R)”: 0.684.
`ACUUCCUGUCCCACCGGCAUCUCACUUAAUUGAGCCUAAUGUCAGUAUCUGUGUGUGCCAAUGCUGUUACCACAUCCUGGUGAAGCUAAAAAAUAAAAUUUAAUUUGGAC` — result for “RBNS enrichment (R)”: 0.348.
For `UGGGAGCUGUUCCUGGACAGCCUUCUACUGCCUGGGAAGUGAUGGAACAGGAACUCAGGGUGCCCUUACCCCCUCCCCAGACCUGUUCCCUUUCUUUGACUGACAGAGCA`, “RBNS enrichment (R)” read 0.736.
Under “RBNS enrichment (R)”, `CUCAGCAGAAGUGAUGACUCUUAAAAAUUGGCUUUGACCAAAGUUCUCUUGUUUUCAGGGAAAGAACAUAAAAGCUUUUUGAACUACAGCCUUUUUAAAAGAGGGAUGGG` is recorded as 0.549.
Under “RBNS enrichment (R)”, `AAGUUUCUUUAAAAGUAUUGUUGUAUUUCAGCUGAACUCUUGUAUCUGCAGUCUUUUGUUAUUUCUGCAGGCUACACCCUUAAUUUGCAGAGGCCAUUUUGUUGUUUGUU` is recorded as 0.517.
`AGAGUCUCGCCCGAUCCCAUCGGCAUCCCGGGGAGGGCCCGGGAGCCUCCGUCAACCGUCCUCUAAUCCAGAGUUUACUCCACCUGCCGCACUUAGCAGGGGGACGGGAC`: “RBNS enrichment (R)” 0.311.
`UGUAAUAGUUAAGAAAUCAUUUUUUCUGAAUGACUUAAAAAAUUUGAUUGAAAAUUUGGCAAAUUACAUUAUUUGUACUAGAAUUUGACCUAAAACACUUUUUAUGUUUG`: “RBNS enrichment (R)” 2.5.
`GUGUUGUUGAGAGGAUGAUGUUGUAAGGGUACCUUAAAACAAGAGACUCGCUUGUAUUUUAAGAGAACCAAGUGGCCAAAGAAACUCUUUCUAACUUUGGCAACAUCAGA`: “RBNS enrichment (R)” 0.31.

Study 2 — method: RNA Bind-n-Seq; molecule type: RNA; sample: in vitro; tested at: 200 nM; setting: whole 134-nt RNA, ends assumed; added: 150 mM LiCl; relative to: input library; reading: higher = stronger binding; all molecules: 7-deaza-guanosine replaces G
Target: Fragile X messenger ribonucleoprotein 1, C-terminal low-complexity region (Fmr1, Mus musculus, UniProt P35922)
All sequences stand within: GGGAGUUCUACAGUCCGACGAUC … UGGAAUUCUCGGGUGUCAAGG
`UCCUCAAGUCCUGUGCUACACAUCGUAUGUACCGAAUCGGAGGAGGAGGGGAAAGUAUUAUGUUACGCCGUUCGGAUCUGCACUUCCAGC` has a log2 enrichment of -1.95.
`AGUCCUGUGCUACACAUCGUAUGUACCGAAUCAAAUUUUUAAACCCCCAAAUUUAAAAAAGUAUUAUGUUACGCCGUUCGGAUCUGCACU` gave a log2 enrichment of -1.37.
`GCAGGAAGUAAAAACAAAUUGAAAUGCUUCGGAUAGUGGCAGGGGUGGGGGUUGCUAAGGAAAGGGUGGGAUGGGAGUGGGUAAAGAGUU` gave a log2 enrichment of 1.46.
`UGGGAGGUGGAUUUUGUUAAUUUUUUUAGCUCAUUUCCAGGGGUGGGAAUUUUUUUUUAAUAUGUGUCAUGAAUAAAGUUGUUUUUGAAA` gave a log2 enrichment of -0.65.
For `CAAGUCCUGUGCUACACAUCGUAUGUACCGAAUCGGCCCCGGGGCCCCGGCCCCGGAAAGUAUUAUGUUACGCCGUUCGGAUCUGCACUU`, the log2 enrichment was -2.19.
`CACAGACAACACGCACCCACAUAGACACAGAGGGAAGGGGUUGGGAUGGGGACAGGGUGCACAGCAGGGCGGGGUAGGACCCCAGCCCCU` has a log2 enrichment of 0.579.
With `UCCUGUGCUACACAUCGUAUGUACCGAAUCGGGGUUUUUUGGUUUUUUGGGUUUUUUGGGAAAGUAUUAUGUUACGCCGUUCGGAUCUGC` the log2 enrichment was -1.02.
`UCCUGUGCUACACAUCGUAUGUACCGAAUCGGGCCCCCCGGGGCCCCCCGGGCCCCCCGGAAAGUAUUAUGUUACGCCGUUCGGAUCUGC` has a log2 enrichment of -2.15.
`CUGUGCUACACAUCGUAUGUACCGAAUCGGGUUUUUUUGGGGUUUUUUUGGGUUUUUUUGGGAAAGUAUUAUGUUACGCCGUUCGGAUCU` gave a log2 enrichment of 1.19.
For `ACCAUGCAGGUGGGCAUCUUUGGGAAGUGGGGCAAGGGGGAGAUAGGGAGGGGGGUAACACUUUGGGAACAGGUGGUCCCAGGUCGUUUC`, the log2 enrichment was 1.29.
`CCUGUGCUACACAUCGUAUGUACCGAAUCGGGUUUUUUUGGGGUUUUUUUGGUUUUUUUGGAAAGUAUUAUGUUACGCCGUUCGGAUCUG` gave a log2 enrichment of 0.609.

Study 3 — method: protein-binding microarray; molecule type: double-stranded DNA, one strand shown; sample: in vitro; tested at: 2200 nM top; setting: 60-bp whole probe; added: salmon DNA 0.4 mg/ml; relative to: random background probes; reading: higher = stronger binding; all sequences stand within: GCCTAGCAC … GTCTTGATTCGCTTGACGCTGCTG
Target: Interferon regulatory factor 7, full length, phosphomimetic (IRF7, Homo sapiens, UniProt Q92985, residues 1-503, S471D/S472D/S475D/S476D/S477D/S483D/S484D/S487D)
UniProt Q92985, sequence (whole entry, unmodified, looked up): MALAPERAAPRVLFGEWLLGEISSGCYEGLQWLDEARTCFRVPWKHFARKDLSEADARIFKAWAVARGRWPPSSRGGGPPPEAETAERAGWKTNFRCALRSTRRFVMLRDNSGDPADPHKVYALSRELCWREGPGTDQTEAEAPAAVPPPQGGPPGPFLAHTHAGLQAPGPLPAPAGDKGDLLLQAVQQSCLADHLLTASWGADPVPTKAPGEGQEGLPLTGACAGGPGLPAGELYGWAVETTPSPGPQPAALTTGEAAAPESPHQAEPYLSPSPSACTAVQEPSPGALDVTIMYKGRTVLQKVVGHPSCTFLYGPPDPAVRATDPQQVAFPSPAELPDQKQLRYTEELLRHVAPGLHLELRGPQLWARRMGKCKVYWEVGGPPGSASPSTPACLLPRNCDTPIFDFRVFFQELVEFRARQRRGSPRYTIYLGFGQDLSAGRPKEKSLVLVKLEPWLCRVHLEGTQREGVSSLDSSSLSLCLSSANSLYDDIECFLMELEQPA
For `GACAGACTGGGACTGGGGACGTGCTAG`, “fitted relative affinity” read -0.916 z-score.
Under “fitted relative affinity”, `ATAGATCTCAGACTGGATTAGTGCTAG` is recorded as 0.113 z-score.
`GCCGGACTGCTACTGCTGACGTGCTAG`: “fitted relative affinity” -0.326 z-score.
For `TTAGGTTTCCGTTCCCTTTAGTGCTAG`, “fitted relative affinity” read 5.11 z-score.
`TTAGAACTGAGTCTCGATAAGTGCTAG`: “fitted relative affinity” -0.422 z-score.
Under “fitted relative affinity”, `GACAATATCGGGACTGGAGACGTGCTA` is recorded as -0.195 z-score.
Under “fitted relative affinity”, `TAAATTTTGATGGAGAGTGCGTGCTAG` is recorded as -0.68 z-score.
Under “fitted relative affinity”, `TCATTTCTATTTTCTGAACTGTGCTAG` is recorded as 3.99 z-score.
Under “fitted relative affinity”, `TAAGATTTCGGGTTTCGATTAGTGCTA` is recorded as 5.95 z-score.
`GTCGATTTCAGTTTCGAGACGTGCTAG`: “fitted relative affinity” 6.05 z-score.
`GCCGGTTTCGGGTTTCGGGACGTGCTA`: “fitted relative affinity” 11.2 z-score.
`CTTAGTTTGTATATATTTTAGTGCTAG`: “fitted relative affinity” 0.618 z-score.
`GACGGTATCTGGTTTCGGGACGTGCTA` — result for “fitted relative affinity”: 2.94 z-score.
`TTTGGTTTCTGGTTTATTGAGTGCTAG` — result for “fitted relative affinity”: 4.43 z-score.
Under “fitted relative affinity”, `TCAGGAAACTTAAACTAGACTGTGCTA` is recorded as -1.03 z-score.
`GGCGAACTGAGTCTCGAGACGTGCTAG` — result for “fitted relative affinity”: -0.215 z-score.
For `TCACTTCTGGATTTTTTACTGTGCTAG`, “fitted relative affinity” read 1.6 z-score.
Under “fitted relative affinity”, `ATTGTTTCCTCTTTCACTGCGTGCTAG` is recorded as 4.33 z-score.
For `GACGGTTTCCTACTGCTTACGTGCTAG`, “fitted relative affinity” read 2.23 z-score.
For `GACGGTATCGGATTCGGGACGTGCTAG`, “fitted relative affinity” read 0.904 z-score.
For `TTAGGACTCGGGTTTCGGTTAGTGCTA`, “fitted relative affinity” read 3.71 z-score.
`TTAGGTATCGGGTTTCGGTTTGTGCTA`: “fitted relative affinity” 8.86 z-score.

Study 4 — method: protein binding microarray; molecule type: double-stranded DNA, one strand shown; sample: in vitro; tested at: not given; relative to: not given; reading: higher = stronger binding
Target: Histone acetyltransferase KAT6A, winged helix 1, GST fusion (KAT6A, Homo sapiens, UniProt Q92794, residues 1-85)
Setting: 8-mer, flanks averaged, mean of 2 arrays, mostly near background
Residues (chain): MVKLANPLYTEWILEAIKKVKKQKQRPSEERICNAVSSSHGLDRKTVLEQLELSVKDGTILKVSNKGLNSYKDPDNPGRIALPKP
`ACACGCCA` gave an E-score of -0.0101.
With `CCCCACGA` the E-score was -0.204.
`CTACATCA` has an E-score of -0.0726.
The E-score of `ACGCTCGA` is reported as 0.0876.
For `AGCCACGC`, the E-score was 0.0828.
For `TCAATTGA`, the E-score was -0.128.
`TACATGGA` has an E-score of 0.00869.
The E-score of `AAAGGGTG` is reported as -0.126.
`CAAAATCA` has an E-score of -0.227.
`ACACACCG` gave an E-score of 0.171.
`CCTCCAGG` gave an E-score of -0.103.
The E-score of `TCAATGGA` is reported as -0.103.
With `AAACGTCA` the E-score was 0.00129.
`CCGAAACG` gave an E-score of 0.0225.
For `ACCAACCG`, the E-score was 0.0971.
`CTTCACAC` gave an E-score of -0.195.
For `CGCAAAGC`, the E-score was 0.294.
With `GATTCGCA` the E-score was 0.0829.
`CCTGGGTC` gave an E-score of -0.168.
The E-score of `GGCAATAA` is reported as -0.085.
For `TCTGTGAA`, the E-score was -0.18.
`ATAGTTCC` has an E-score of -0.0428.
The E-score of `ATAGGGTC` is reported as -0.141.
The E-score of `ATCACGCA` is reported as 0.0669.
The E-score of `GGTTGCAA` is reported as -0.155.

A few entries again (study 4):
`CCGAAACG` gave an E-score of 0.0225.
For `ACCAACCG`, the E-score was 0.0971.
`CTTCACAC` gave an E-score of -0.195.
For `CGCAAAGC`, the E-score was 0.294.
